{"data": "Results collected from several papers", "note": "Protocols differ between the studies behind these lines. ± gives the spread as reported.", "chain of UniProt P07948 (whole entry, looked up)": "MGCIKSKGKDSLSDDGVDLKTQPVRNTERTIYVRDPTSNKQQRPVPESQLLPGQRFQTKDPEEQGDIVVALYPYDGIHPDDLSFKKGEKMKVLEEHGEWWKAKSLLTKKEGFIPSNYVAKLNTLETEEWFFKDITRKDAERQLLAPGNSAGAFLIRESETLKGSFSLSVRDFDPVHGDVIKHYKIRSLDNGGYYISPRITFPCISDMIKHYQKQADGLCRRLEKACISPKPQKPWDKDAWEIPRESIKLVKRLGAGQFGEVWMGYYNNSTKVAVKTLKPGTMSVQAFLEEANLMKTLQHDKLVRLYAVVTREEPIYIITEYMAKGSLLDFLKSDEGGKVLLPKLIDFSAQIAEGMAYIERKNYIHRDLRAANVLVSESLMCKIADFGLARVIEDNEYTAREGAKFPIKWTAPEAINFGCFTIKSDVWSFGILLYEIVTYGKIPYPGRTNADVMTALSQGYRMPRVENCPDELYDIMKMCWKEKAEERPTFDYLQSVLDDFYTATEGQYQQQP", "chain of UniProt P11362 (whole entry, looked up)": "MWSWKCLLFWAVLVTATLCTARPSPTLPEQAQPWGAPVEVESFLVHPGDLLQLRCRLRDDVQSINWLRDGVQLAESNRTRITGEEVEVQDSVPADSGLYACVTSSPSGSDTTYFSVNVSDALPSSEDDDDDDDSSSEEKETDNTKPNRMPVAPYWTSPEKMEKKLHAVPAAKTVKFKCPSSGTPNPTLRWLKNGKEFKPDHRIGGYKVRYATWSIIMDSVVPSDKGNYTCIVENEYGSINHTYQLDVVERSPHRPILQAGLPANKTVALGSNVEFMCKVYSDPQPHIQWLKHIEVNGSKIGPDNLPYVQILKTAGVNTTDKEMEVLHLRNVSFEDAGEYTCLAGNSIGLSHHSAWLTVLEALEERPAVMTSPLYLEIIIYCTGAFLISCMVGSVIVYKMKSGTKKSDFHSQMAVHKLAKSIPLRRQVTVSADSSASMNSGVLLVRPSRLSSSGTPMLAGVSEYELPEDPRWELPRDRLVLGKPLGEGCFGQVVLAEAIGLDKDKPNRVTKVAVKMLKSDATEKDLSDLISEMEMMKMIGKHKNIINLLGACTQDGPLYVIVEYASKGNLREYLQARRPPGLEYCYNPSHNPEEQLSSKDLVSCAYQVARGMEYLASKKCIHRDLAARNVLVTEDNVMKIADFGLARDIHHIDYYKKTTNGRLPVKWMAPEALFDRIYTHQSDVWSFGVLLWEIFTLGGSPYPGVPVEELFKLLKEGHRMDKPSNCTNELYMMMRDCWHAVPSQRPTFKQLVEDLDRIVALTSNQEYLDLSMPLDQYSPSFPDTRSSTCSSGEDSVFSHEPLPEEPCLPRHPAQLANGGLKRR", "chain of UniProt O15229 (whole entry, looked up)": "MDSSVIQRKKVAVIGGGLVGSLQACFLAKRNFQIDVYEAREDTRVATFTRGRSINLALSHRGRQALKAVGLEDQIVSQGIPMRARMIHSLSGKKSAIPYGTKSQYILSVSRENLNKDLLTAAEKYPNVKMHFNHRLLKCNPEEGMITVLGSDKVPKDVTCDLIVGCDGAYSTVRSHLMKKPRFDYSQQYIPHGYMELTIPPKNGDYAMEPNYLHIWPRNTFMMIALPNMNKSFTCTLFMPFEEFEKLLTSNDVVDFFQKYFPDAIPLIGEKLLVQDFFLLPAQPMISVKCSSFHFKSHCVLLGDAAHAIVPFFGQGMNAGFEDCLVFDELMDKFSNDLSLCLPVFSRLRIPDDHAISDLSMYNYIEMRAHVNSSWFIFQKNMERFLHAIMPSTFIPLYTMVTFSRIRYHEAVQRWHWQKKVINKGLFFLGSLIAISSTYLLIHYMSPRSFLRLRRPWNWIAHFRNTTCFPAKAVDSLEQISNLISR", "chain of UniProt O15393 (whole entry, looked up)": "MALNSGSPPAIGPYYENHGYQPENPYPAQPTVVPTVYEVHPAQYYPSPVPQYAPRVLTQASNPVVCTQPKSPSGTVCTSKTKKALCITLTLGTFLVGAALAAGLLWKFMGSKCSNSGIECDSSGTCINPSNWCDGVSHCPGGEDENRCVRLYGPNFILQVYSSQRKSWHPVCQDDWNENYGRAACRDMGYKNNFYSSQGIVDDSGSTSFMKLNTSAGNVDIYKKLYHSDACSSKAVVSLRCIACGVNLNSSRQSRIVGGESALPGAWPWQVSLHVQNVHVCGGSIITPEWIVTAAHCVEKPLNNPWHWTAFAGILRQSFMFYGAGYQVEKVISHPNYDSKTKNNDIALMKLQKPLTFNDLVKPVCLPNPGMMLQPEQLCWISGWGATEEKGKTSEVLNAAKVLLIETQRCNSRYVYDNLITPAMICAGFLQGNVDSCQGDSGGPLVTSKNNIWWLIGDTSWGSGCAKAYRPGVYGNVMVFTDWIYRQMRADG", "chain of UniProt P28236 (whole entry, looked up)": "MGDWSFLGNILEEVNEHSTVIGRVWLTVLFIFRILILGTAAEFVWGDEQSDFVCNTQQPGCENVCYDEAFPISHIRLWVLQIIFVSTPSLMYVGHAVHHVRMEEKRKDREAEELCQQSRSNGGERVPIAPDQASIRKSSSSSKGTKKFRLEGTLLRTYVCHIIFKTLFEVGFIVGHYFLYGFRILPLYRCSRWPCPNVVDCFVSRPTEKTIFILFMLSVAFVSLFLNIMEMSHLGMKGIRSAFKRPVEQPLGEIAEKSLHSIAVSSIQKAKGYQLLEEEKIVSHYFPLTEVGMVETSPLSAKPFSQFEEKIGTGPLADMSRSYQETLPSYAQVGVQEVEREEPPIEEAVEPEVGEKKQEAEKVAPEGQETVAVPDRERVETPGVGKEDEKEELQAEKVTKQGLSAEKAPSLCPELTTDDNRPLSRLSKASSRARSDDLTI", "chain of UniProt P27694 (whole entry, looked up)": "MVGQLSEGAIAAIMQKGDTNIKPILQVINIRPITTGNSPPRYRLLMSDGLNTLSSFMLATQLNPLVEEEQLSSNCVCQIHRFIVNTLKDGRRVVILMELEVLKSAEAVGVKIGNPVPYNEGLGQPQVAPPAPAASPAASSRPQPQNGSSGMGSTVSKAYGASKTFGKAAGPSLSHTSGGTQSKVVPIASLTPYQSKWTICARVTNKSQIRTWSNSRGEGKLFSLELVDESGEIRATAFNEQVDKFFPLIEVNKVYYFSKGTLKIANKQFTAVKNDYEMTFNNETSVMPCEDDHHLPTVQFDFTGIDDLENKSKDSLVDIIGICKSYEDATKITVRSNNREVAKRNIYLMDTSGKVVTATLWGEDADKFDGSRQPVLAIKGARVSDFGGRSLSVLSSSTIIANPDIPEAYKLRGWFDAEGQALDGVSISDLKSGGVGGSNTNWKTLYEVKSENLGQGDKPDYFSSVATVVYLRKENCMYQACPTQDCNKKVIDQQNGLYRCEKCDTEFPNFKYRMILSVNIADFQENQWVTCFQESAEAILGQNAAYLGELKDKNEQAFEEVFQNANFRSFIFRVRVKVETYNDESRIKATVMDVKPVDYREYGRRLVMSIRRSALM", "chain of UniProt Q8TD43 (whole entry, looked up)": "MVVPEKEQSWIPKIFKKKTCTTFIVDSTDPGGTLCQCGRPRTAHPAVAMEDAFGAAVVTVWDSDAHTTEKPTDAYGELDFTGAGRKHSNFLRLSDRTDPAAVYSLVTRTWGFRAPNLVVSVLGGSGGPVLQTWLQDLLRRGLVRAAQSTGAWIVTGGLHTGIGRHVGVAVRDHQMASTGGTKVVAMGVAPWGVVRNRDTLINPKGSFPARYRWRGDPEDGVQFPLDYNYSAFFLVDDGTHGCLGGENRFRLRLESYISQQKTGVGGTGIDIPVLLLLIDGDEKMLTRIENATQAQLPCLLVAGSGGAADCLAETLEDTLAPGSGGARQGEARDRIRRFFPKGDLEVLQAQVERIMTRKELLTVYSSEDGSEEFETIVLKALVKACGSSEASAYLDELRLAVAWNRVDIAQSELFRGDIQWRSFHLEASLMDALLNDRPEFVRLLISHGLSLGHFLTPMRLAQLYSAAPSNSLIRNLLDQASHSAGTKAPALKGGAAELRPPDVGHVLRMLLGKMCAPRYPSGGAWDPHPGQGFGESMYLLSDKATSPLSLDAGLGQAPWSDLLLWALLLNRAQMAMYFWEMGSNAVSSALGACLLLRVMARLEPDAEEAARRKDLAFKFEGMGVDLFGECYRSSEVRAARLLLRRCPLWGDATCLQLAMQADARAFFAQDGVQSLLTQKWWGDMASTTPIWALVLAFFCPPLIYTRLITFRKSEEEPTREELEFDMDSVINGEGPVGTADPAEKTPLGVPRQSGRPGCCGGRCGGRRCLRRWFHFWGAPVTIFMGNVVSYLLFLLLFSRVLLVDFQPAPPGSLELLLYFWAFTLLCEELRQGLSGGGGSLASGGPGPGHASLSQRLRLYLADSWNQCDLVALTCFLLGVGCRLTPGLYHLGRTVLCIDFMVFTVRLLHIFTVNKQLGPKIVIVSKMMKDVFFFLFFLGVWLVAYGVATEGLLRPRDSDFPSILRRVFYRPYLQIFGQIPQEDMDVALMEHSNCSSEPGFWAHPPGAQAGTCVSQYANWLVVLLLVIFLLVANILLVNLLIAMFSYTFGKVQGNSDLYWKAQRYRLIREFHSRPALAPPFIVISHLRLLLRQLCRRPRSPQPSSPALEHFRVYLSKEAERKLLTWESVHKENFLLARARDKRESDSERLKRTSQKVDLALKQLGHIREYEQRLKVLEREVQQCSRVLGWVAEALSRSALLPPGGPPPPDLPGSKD", "chain of UniProt P28845 (whole entry, looked up)": "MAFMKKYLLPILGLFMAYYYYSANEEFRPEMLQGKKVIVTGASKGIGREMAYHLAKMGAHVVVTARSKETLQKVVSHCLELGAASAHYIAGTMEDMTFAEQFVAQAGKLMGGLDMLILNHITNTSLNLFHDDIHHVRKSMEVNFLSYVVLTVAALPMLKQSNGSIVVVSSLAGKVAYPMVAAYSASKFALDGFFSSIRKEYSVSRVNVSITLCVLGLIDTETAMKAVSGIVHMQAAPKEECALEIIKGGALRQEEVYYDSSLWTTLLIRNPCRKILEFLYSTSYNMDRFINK"}
{"SMILES": "COc1cc(/C=C/c2cc(/C=C/c3ccc(O)c(OC)c3)n(C(=O)c3ccco3)n2)ccc1O", "target": "Sterol carrier protein 2 (Helicoverpa armigera, UniProt K7NSY9)", "test": "displacement of 1,8-ANS, fluorescence", "setting": "pH 7.0, 25 °C, with: 1,8-ANS 15 µM", "IC50": "25.8 µM"}
{"SMILES": "O=c1c(OCc2ccccc2)c(-c2ccco2)oc2ccccc12", "target": "β-glucosidase", "test": "enzyme activity, inhibitor", "IC50": "0.39 ± 0.14 µM"}
{"SMILES": "COc1ccc2c3c(c(Cc4ccc(Cl)cc4)[nH]c13)CCN(CCN(C)C)C2=O", "target": "cGMP-specific 3',5'-cyclic phosphodiesterase (PDE5A, Homo sapiens, UniProt O76074)", "test": "enzyme activity, inhibitor", "IC50": "0.03 µM"}
{"SMILES": "O=C(O)[C@@H]1Cc2c([nH]c3ccccc23)[C@@H](c2ccccc2Cl)N1", "target": "MEP cytidylyltransferase IspD (Plasmodium falciparum, UniProt Q8I273)", "test": "enzyme activity, inhibitor, fluorimetric pyrophosphate", "IC50": "~1 µM"}
{"SMILES": "CCCC(CCC)C(=O)NO", "target": "HDAC (Lucilia cuprina egg nuclear extract)", "test": "enzyme activity, inhibitor, fluorometric", "IC50": "> 100 µM"}
{"SMILES": "C=CC(=O)N1CCc2ccc(-n3c(=O)ccc4cnc5ccc(-c6cnn(C)c6)cc5c43)cc21", "target": "Tyrosine-protein kinase Lyn (LYN, Homo sapiens, UniProt P07948)", "test": "enzyme activity, inhibitor", "IC50": "> 10 µM"}
{"SMILES": "O=C(Cn1cc([N+](=O)[O-])cc(Br)c1=O)c1cc2cc(Cl)ccc2[nH]1", "target": "Replication protein A 70 kDa DNA-binding subunit (RPA1, Homo sapiens, UniProt P27694)", "test": "inhibitor, FRET", "IC50": "28.8 ± 4 µM"}
{"SMILES": "N#CCCNC(c1ccccc1)(c1ccccc1)c1ccccc1Cl", "target": "Gap junction alpha-8 protein (Gja8, Mus musculus, UniProt P28236)", "test": "gap junction current, inhibitor, dual whole-cell voltage clamp", "system": "transfected mouse N2a cell pairs", "IC50": "6 µM"}
{"SMILES": "Oc1c(C(Nc2nc3ccccc3s2)c2ccccc2OCc2ccccc2)ccc2cccnc12 (centres unmarked)", "target": "Genome polyprotein, NS2B-NS3 protease (GP1, West Nile virus, UniProt Q9Q6P4)", "test": "enzyme activity, inhibitor", "setting": "0.1% CHAPS, with: tetrapeptide substrate", "IC50": "5.15 ± 0.09 µM"}
{"SMILES": "CCCN(CC(=O)N(CCC)CC(=O)N(CCC)CC(=O)N(CCC)CC(=O)N(CC(N)=O)Cc1cn(CCCNC(=O)CCCOc2cccc(-c3nc4ccc(-c5nc6ccc(N7CCN(C)CC7)cc6[nH]5)cc4[nH]3)c2)nn1)C(=O)CNCc1cn(CCCNC(=O)CCCOc2cccc(-c3nc4ccc(-c5nc6ccc(N7CCN(C)CC7)cc6[nH]5)cc4[nH]3)c2)nn1", "target": "MBNL1–r(CUG)109 complex", "test": "MBNL1 displacement", "setting": "with: bulk yeast tRNA competitor", "IC50": "11 ± 2 µM"}
{"SMILES": "O=C(C[S+]([O-])c1cccs1)C12CC3CC(CC(C3)C1)C2 (centres unmarked)", "target": "11-beta-hydroxysteroid dehydrogenase 1 (HSD11B1, Homo sapiens, UniProt P28845)", "test": "enzyme activity in cells, inhibitor", "IC50": "0.059 µM"}
{"SMILES": "COc1ccc(S(=O)(=O)Nc2nc(-c3cccc([N+](=O)[O-])c3)cs2)cc1OC", "target": "Kynurenine 3-monooxygenase (KMO, Homo sapiens, UniProt O15229)", "test": "enzyme activity, inhibitor, absorbance", "IC50": "4.96 µM"}
{"SMILES": "O=C(O)c1ccccc1NCc1ccccc1Cl", "target": "Transient receptor potential cation channel subfamily M member 4 (TRPM4, Homo sapiens, UniProt Q8TD43)", "test": "ion flux, inhibitor, fluorescence", "IC50": "8.3 µM"}
{"SMILES": "CC(C)c1ccc(C(=O)Nc2ccc(CN)cc2)c(O)c1", "target": "Transmembrane protease serine 2 (TMPRSS2, Homo sapiens, UniProt O15393)", "test": "enzyme activity, inhibitor, fluorescence", "setting": "with preincubation", "IC50": "1.5 µM"}
{"SMILES": "Cc1cc2c(NC(=O)N[C@@H]3CC(C)(C)Oc4cc(C(F)(F)F)ccc43)c(C)ccc2cn1", "target": "Transient receptor potential cation channel subfamily V member 1 (Trpv1, Rattus norvegicus, UniProt O35433)", "test": "calcium signal, antagonist, fluorescence", "IC50": "0.0546 µM"}
{"SMILES": "COC(=O)[C@H]1C[C@H](OCCCl)[C@@H](O[C@H]2O[C@H](CO)[C@@H](O)[C@H](O)[C@@H]2n2cc(-c3ccccn3)nn2)C[C@@H]1C(=O)OC", "target": "CD209 antigen (CD209, Homo sapiens, UniProt Q9NNX6)", "test": "cell-free assay, SPR", "IC50": "180 µM"}
{"SMILES": "COc1cc2nccc(Oc3ccc(NC(=S)NCc4ccccc4)c(Cl)c3)c2cc1C(N)=O", "target": "Fibroblast growth factor receptor 1 (FGFR1, Homo sapiens, UniProt P11362)", "IC50": "4.9 µM"}
{"note": "Excerpt of the above:"}
{"SMILES": "O=c1c(OCc2ccccc2)c(-c2ccco2)oc2ccccc12", "target": "β-glucosidase", "test": "enzyme activity, inhibitor", "IC50": "0.39 ± 0.14 µM"}
